{"data": "Results collected from several papers", "note": "Lines come from different studies, so protocols differ. Several values in a cell are separate wells, animals, samples, runs or records. Numbers after ± are the reported error."}
{"Compound": "CCn1c(=O)c(-c2cc[nH]n2)cc2c(C)nc(N)nc21", "tested on": "Coxsackievirus B4", "assay": "viral replication, RT-qPCR", "system": "HeLa, CVB4-7", "conditions": "concentration not given, 20 h", "endpoint": "viral RNA level", "result": "decreased"}
{"Compound": "COc1ccc(-c2nc(N3CCOCC3)c3sc(CN(C)c4ncc(C(=O)NO)cn4)cc3n2)cn1", "tested on": "human alphaherpesvirus 1", "assay": "live-cell GFP imaging", "system": "primary human keratinocytes, K26 GFP", "endpoint": "IC50", "result": "0.95 µM"}
{"Compound": "CC1(C)S[C@@H]2[C@H](NC(=O)[C@H](N)c3ccccc3)C(=O)N2[C@H]1C(=O)O", "tested on": "Salmonella enterica serovar Choleraesuis", "assay": "broth microdilution", "system": "clinical isolate RKI-No 532/14-1", "endpoint": "MIC", "result": "> 16 µg/mL"}
{"Compound": "CN[C@H](CC(C)C)C(=O)N[C@H]1C(=O)N[C@@H](CC(N)=O)C(=O)N[C@H]2C(=O)N[C@H]3C(=O)N[C@H](C(=O)N[C@H](C(=O)O)c4cc(O)cc(O)c4-c4cc3ccc4O)[C@H](O)c3ccc(c(Cl)c3)Oc3cc2cc(c3O[C@@H]2O[C@H](CO)[C@@H](O)[C@H](O)[C@H]2O[C@H]2C[C@](C)(N)[C@H](O)[C@H](C)O2)Oc2ccc(cc2Cl)[C@H]1O", "tested on": "Staphylococcus epidermidis", "assay": "broth microdilution", "system": "methicillin-resistant isolates", "endpoint": "MBC", "result": "4 µg/mL"}
{"Compound": "NCc1[nH]cc(CCC(=O)O)c1CC(=O)O", "assay": "binding, equilibrium dialysis LC-MS", "conditions": "5 µM, thermostabilized A2AR-BRIL construct", "how to read": "relative to: no-protein control, direction not given", "endpoint": "z-scored log2 fold change", "result": 0.335}
{"Compound": "C=CC(=O)N1CC/C(=C\\c2ccc(F)c([N+](=O)[O-])c2)C(=O)/C(=C/c2ccc(F)c([N+](=O)[O-])c2)C1", "tested on": "human alphaherpesvirus 1", "assay": "live-cell GFP imaging", "system": "primary human fibroblasts, K26 GFP", "endpoint": "IC50", "result": "3.05 µM"}
{"Compound": "COC[C@H]1O[C@@H]2O[C@@H]3[C@@H](OC)[C@@H](OC)[C@@H](O[C@@H]4[C@@H](OC)[C@@H](OC)[C@@H](O[C@@H]5[C@@H](OC)[C@@H](OC)[C@@H](O[C@@H]6[C@@H](OC)[C@@H](OC)[C@@H](O[C@@H]7[C@@H](OC)[C@@H](OC)[C@@H](O[C@@H]1[C@@H](OC)[C@H]2OC)O[C@@H]7COC)O[C@@H]6COC)O[C@@H]5COC)O[C@@H]4COC)O[C@@H]3COC", "tested on": "Escherichia coli", "assay": "LuxR reporter, agonist", "system": "DH5α sensor strain", "conditions": "200 µM", "endpoint": "bioluminescence", "result": "816 ± 41 RLU"}
{"Compound": "COc1ccnc(C(=O)O)c1O", "tested on": "Daphnia magna", "assay": "immobilisation, semi-static water exposure", "conditions": "48 h", "endpoint": "EC50", "result": "> 9.5 µg/mL"}
{"Compound": "CO[C@H]1/C=C/O[C@@]2(C)Oc3c(C)c(O)c4c(O)c(c(/C=N/N5CCN(C)CC5)c(O)c4c3C2=O)NC(=O)/C(C)=C\\C=C\\[C@H](C)[C@H](O)[C@@H](C)[C@@H](O)[C@@H](C)[C@H](OC(C)=O)[C@@H]1C", "tested on": "Mycobacterium tuberculosis", "system": "Mus musculus, spleen", "conditions": "10 mg/kg, suspended in PBS, monotherapy", "endpoint": "bacterial load reduction", "result": "~2 log10 CFU"}
{"Compound": "CC(C)c1cnn2c(NCc3ccccc3-n3cccn3)nc(OC3CCCNC3)nc12 (centres unmarked)", "tested on": "human alphaherpesvirus 1", "assay": "viral replication, GFP live imaging", "system": "primary human fibroblasts, K26 GFP-expressing", "endpoint": "IC50", "result": "0.99 µM"}
{"Compound": "CCCCCCc1ccc(Oc2ccccc2C)c(O)c1", "tested on": "Mycobacterium tuberculosis", "system": "mouse, rapid infection model, spleen", "conditions": "oral, 200 mg/kg once daily, co-solvent formulation", "endpoint": "CFU reduction", "result": "0.99 log10 CFU"}
{"Compound": "Cc1ccc(NC(=O)N2Cc3[nH]cnc3C[C@H]2c2nc(-c3ccc4c(c3)OCO4)no2)cc1", "tested on": "Caenorhabditis elegans", "system": "N2", "conditions": "100 µM", "endpoint": "median lifespan", "result": "17 days"}
{"Compound": "N[C@@H](Cc1c[nH]c2ccccc12)C(=O)O", "assay": "binding, equilibrium dialysis LC-MS", "conditions": "5 µM, thermostabilized A2AR-BRIL construct", "how to read": "relative to: no-protein control, direction not given", "endpoint": "z-scored log2 fold change", "result": 0.635}
{"Compound": "Cc1cc(Nc2ccc(S(F)(F)(F)(F)F)cc2)n2nc(C(C)(F)F)nc2n1", "tested on": "Plasmodium falciparum", "assay": "microscopy", "system": "human malaria patients", "conditions": "400 mg, mean", "endpoint": "lag phase (Tlag)", "result": "8.78 h"}
{"Compound": "CC(=O)NC[C@H]1CN(c2ccc(N3CCOCC3)c(F)c2)C(=O)O1", "tested on": "Staphylococcus haemolyticus", "system": "mouse systemic infection", "conditions": "intravenous", "how to read": "survival", "endpoint": "ED50", "result": "13.4 mg/kg"}
{"Compound": "CN[C@H](CC(C)C)C(=O)N[C@H]1C(=O)N[C@@H](CC(N)=O)C(=O)N[C@H]2C(=O)N[C@H]3C(=O)N[C@H](C(=O)N[C@H](C(=O)O)c4cc(O)cc(O)c4-c4cc3ccc4O)[C@H](O)c3ccc(c(Cl)c3)Oc3cc2cc(c3O[C@@H]2O[C@H](CO)[C@@H](O)[C@H](O)[C@H]2O[C@H]2C[C@](C)(N)[C@H](O)[C@H](C)O2)Oc2ccc(cc2Cl)[C@H]1O", "tested on": "Streptococcus pyogenes", "system": "ATCC 13813", "conditions": "1 strain", "endpoint": "MIC50", "result": "0.5 µg/mL"}
{"Compound": "COC(=O)[C@H](Cc1c[nH]c2ccccc12)NCc1cc2ccccc2nc1SC", "tested on": "Pseudomonas aeruginosa", "conditions": "8 µg/mL, without pentamidine", "how to read": "relative to: control", "endpoint": "growth", "result": "99.3%"}
{"Compound": "Nc1nc(-c2ccccc2)nc2[nH]nc(Nc3ccc(C(F)(F)F)cc3)c12", "tested on": "coxsackievirus B3", "system": "31-1-93, NMRI mice, CVB3 chronic myocarditis", "conditions": "oral, 100 mg/kg twice daily, day 10, dosed days 3 to 10, score scale 0 to 7", "how to read": "direction not given", "endpoint": "clinical score", "result": 1.3}
{"Compound": "N=C(N)c1ccc(OCc2ccccc2COc2ccc(C(=N)N)cc2)cc1", "tested on": "Escherichia coli", "system": "BW25113", "conditions": "concentration not given, lowest-FICI combination, with: erythromycin", "endpoint": "MIC in combination", "result": "25 µg/mL"}
{"Compound": "O=C(/C=C\\n1cnc(-c2cc(C(F)(F)F)cc(C(F)(F)F)c2)n1)NNc1ccccn1", "tested on": "human alphaherpesvirus 1", "system": "primary human fibroblasts, K26 GFP", "how to read": "relative to: CC50 over IC50", "endpoint": "selectivity index", "result": 1}
{"Compound": "CCC(=O)O", "tested on": "Cryptosporidium parvum", "assay": "image-based", "system": "HCT-8", "conditions": "1 mM, 24 h post-infection", "how to read": "relative to: PBS", "endpoint": "relative parasite number", "result": "1.07 ± 0.158"}
{"Compound": "O=C(Nc1ccc([N+](=O)[O-])cc1Cl)c1cc(Cl)ccc1O", "tested on": "human alphaherpesvirus 1", "assay": "live-cell GFP imaging", "system": "primary human keratinocytes, K26 GFP", "endpoint": "IC50", "result": "9.9 µM"}
{"Compound": "CN[C@H](CC(C)C)C(=O)N[C@H]1C(=O)N[C@@H](CC(N)=O)C(=O)N[C@H]2C(=O)N[C@H]3C(=O)N[C@H](C(=O)N[C@H](C(=O)O)c4cc(O)cc(O)c4-c4cc3ccc4O)[C@H](O)c3ccc(c(Cl)c3)Oc3cc2cc(c3O[C@@H]2O[C@H](CO)[C@@H](O)[C@H](O)[C@H]2O[C@H]2C[C@](C)(N)[C@H](O)[C@H](C)O2)Oc2ccc(cc2Cl)[C@H]1O", "tested on": "coagulase-negative staphylococci", "conditions": "concentration not given, MIC ≤2 µg/mL", "endpoint": "isolates inhibited", "result": "75.4%"}
{"Compound": "COc1ccc(NC(=O)N2CCCCN3[C@H](CN(C)C)[C@H](c4ccc(C#Cc5ccccc5)cc4)[C@@H]3C2)cc1", "tested on": "Cryptosporidium parvum", "system": "HCT-8", "endpoint": "concentration for maximal kill rate", "result": "3 × EC90"}
{"Compound": "COC(=O)[C@@H](CCSC)NCc1cc2ccccc2nc1SC", "tested on": "Pseudomonas aeruginosa", "conditions": "16 µg/mL, with: pentamidine 100 µM", "how to read": "relative to: control", "endpoint": "growth", "result": "97.8%"}
{"Compound": "Cc1nc(N(C)C(=O)Cc2ccc(-c3ccccn3)cc2)sc1S(N)(=O)=O", "tested on": "human alphaherpesvirus 1", "system": "K26 GFP, 3D skin equivalent, air-liquid", "how to read": "relative to: CC50 over IC50", "endpoint": "selectivity index", "result": "> 52.6"}
{"Compound": "N=C(N)c1ccc(OCc2cc(Br)cc(COc3ccc(C(=N)N)cc3)c2)cc1", "tested on": "Escherichia coli", "system": "ATCC 25922", "conditions": "concentration not given, with: rifampicin", "endpoint": "MIC in combination", "result": "6.25 µg/mL"}
{"Compound": "CNC(C)C1CCC(N)C(OC2C(N)CC(N)C(OC3OCC(C)(O)C(NC)C3O)C2O)O1 (centres unmarked)", "tested on": "Pseudomonas aeruginosa", "system": "clinical isolate RKI-No_598/16", "endpoint": "MIC", "result": "4 µg/mL"}
{"Compound": "O=C(O)CCCC(=O)O", "tested on": "Cryptosporidium parvum", "assay": "image-based", "system": "HCT-8", "conditions": "1 mM, 24 h post-infection", "how to read": "relative to: PBS", "endpoint": "relative parasite number", "result": "1.01 ± 0.153"}
{"Compound": "CCCc1nn(C)c2c(=O)[nH]c(-c3cc(S(=O)(=O)N4CCN(C)CC4)ccc3OCC)nc12", "tested on": "Cryptosporidium parvum", "assay": "parasite growth, immunofluorescence imaging", "system": "HCT-8, Iowa", "conditions": "24.7 nM", "endpoint": "inhibition", "result": "-29% and -17.7%"}
{"Compound": "Cc1cccc(C)c1N(CC(=O)Nc1ccc(-c2ncon2)cc1)C(=O)C1CCS(=O)(=O)CC1", "tested on": "human alphaherpesvirus 1", "system": "primary human fibroblasts, K26 GFP", "conditions": "CC50 capped at 10.00 µM", "how to read": "relative to: CC50 over IC50", "endpoint": "selectivity index", "result": "> 100"}
{"Compound": "Cc1cc(OC(C)C)ccc1C(=O)C(C)(C)NC(=O)c1sccc1C", "tested on": "Botrytis cinerea", "assay": "mycelial growth", "system": "B05.10", "conditions": "0.03 µg/mL", "endpoint": "inhibition", "result": "75.6 ± 3.6%"}
